Measurements from different studies.
A part holds a random share of what one study measured. Changes are numbered by the printed parent chain.

Series 1
Target: ABI1, truncated, D143A, DHFR fusion (Arabidopsis thaliana)
Technique: DHFR PCA, deep sequencing
Sample: yeast
Setting: methotrexate growth selection, single substitutions
Added: (+)-ABA 0.11 µM
Reference: wild-type fitted maximum
Reading: higher = stronger binding
Endpoint: relative binding score
Starting sequence: PYL1, truncated, DHFR fusion (Arabidopsis thaliana); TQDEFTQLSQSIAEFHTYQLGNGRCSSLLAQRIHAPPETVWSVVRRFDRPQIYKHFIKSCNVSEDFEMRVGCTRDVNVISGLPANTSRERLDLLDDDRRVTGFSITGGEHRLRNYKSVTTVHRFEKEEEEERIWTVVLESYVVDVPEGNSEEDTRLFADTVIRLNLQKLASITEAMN
Change = L138D; value = 5%
Change = D144E; value = 2.99%
Change = F103W; value = -6.68%
Change = P83D; value = 5.37%
Change = S80I; value = 28.5%
Change = I105R; value = -3.84%
Change = E131D; value = 53.3%
Change = V78S; value = 14.3%
Change = R32K; value = 35.4%
Change = F15H; value = 13%
Change = F5S; value = 7.7%
Change = E67T; value = 25.7%
Change = I162V; value = 47.7%
Change = T173W; value = -10.8%
Change = D3M; value = 31.3%
Change = L20W; value = 3.92%
Change = N165M; value = 4.54%
Change = Y115R; value = -4.67%
Change = G102P; value = -8.82%
Change = T106E; value = 11.2%
Change = S59Q; value = 9.37%
Change = F103S; value = -1.86%

Series 2
Target: Histone acetyltransferase KAT6A, winged helix 2, GST fusion (KAT6A, Homo sapiens, UniProt Q92794, residues 85-181)
Technique: protein binding microarray
Molecule type: double-stranded DNA, one strand shown
Sample: in vitro
Tested at: not given
Setting: 8-mer, flanks averaged, mean of 2 arrays, mostly near background
Reference: not given
Reading: higher = stronger binding
Endpoint: E-score
Residues (chain): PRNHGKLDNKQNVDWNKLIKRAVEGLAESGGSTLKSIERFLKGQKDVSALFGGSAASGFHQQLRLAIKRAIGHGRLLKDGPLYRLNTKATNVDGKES
Sequence = GTAACGAA; value = -0.0179
Sequence = CGGTGCAA; value = 0.0664
Sequence = CTGTCCTA; value = -0.0448
Sequence = GCATTATA; value = -0.0856
Sequence = CCACCCAG; value = 0.0915
Sequence = CGATGAGC; value = 0.148
Sequence = AAGTCGTA; value = -0.216
Sequence = GCCTGAAA; value = 0.0963
Sequence = AATTAGAG; value = 0.104
Sequence = CGTTTGGA; value = -0.143
Sequence = GGGCTATA; value = -0.234
Sequence = ATTGGCTC; value = 0.0505
Sequence = ATCAGGCA; value = -0.0623
Sequence = ATCAGACC; value = -0.156
Sequence = ACTACGCG; value = 0.0799
Sequence = ACAGAATG; value = -0.0401
Sequence = CTTTTTTC; value = 0.0622
Sequence = CCTGTCTC; value = 0.0204
Sequence = CCCTAACG; value = 0.037
Sequence = AAACTAGT; value = -0.178
Sequence = CATACGAC; value = -0.127
Sequence = CAGGAAGA; value = 0.0426
Sequence = AAACGCTC; value = -0.105
Sequence = GGGTAGTA; value = -0.213
Sequence = ACAAGGCG; value = 0.0339

Series 3
Target: DDIT3, bZIP domain (human)
Technique: DHFR protein complementation
Sample: yeast
Setting: single substitutions, most at no-binding floor
Reference: wild-type JUN-FOS pair
Reading: higher = stronger binding
Endpoint: binding fitness
Starting sequence: JUN, bZIP domain (human); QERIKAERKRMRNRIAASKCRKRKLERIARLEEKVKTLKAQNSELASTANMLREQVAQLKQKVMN; partner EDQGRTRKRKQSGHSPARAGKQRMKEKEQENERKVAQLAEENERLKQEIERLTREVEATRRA
Change = T37D; value = 0.084 natural log
Change = L52V; value = -1.06 natural log
Change = R30C; value = 0.0343 natural log
Change = R53C; value = -0.765 natural log
Change = Q41E; value = 0.12 natural log
Change = E33F; value = -0.142 natural log
Change = Q55D; value = -0.662 natural log
Change = S43N; value = 0.0581 natural log
Change = A40R; value = 0.0719 natural log
Change = A46G; value = -0.405 natural log
Change = Q55R; value = -0.0119 natural log
Change = L45T; value = -1.39 natural log
Change = L38A; value = -1.17 natural log
Change = L45G; value = -1.26 natural log
Change = E32D; value = -0.00514 natural log
Change = Q55N; value = -0.437 natural log
Change = V56W; value = -0.073 natural log
Change = A40S; value = -0.0139 natural log
Change = S43W; value = -0.108 natural log
Change = R30W; value = 0.102 natural log
Change = E54S; value = -0.138 natural log
Change = A29T; value = -0.053 natural log
Change = E54D; value = -0.108 natural log
Change = K36F; value = -0.315 natural log
Change = T48R; value = 0.146 natural log

Series 4
Target: RNA binding protein fox-1 homolog 2, RRM domain, GST-SBP tag (RBFOX2, Homo sapiens, UniProt O43251-10, residues 100-194)
Technique: RNA Bind-n-Seq
Molecule type: RNA
Sample: in vitro
Tested at: 365 nM
Setting: natural RNA segment, single round, ends assumed
Reference: no-protein control
Reading: higher = stronger binding
Endpoint: RBNS enrichment (R)
Constant ends, left off below: GGGAGUUCUACAGUCCGACGAUC … UGGAAUUCUCGGGUGCCAA
Construct (chain): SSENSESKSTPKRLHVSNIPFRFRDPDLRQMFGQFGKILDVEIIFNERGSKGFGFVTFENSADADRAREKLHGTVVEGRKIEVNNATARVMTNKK
Sequence = UGCUCUCUCAAGAUUAAAGUCUUUCAGCAACAUUCUUUAUUGUCAUCAUAAGGAAAAACUUUUAUCGCAAUGAUAGUCAGUUCACAUUAGUUUAGCACUAUAGAUAGUAU; value = 0.612
Sequence = CAGUUUGAAGACAGAAGUGUACUCUCUACAAUGCAAUUUACUGUACAGUUAGAAAGCAAAGUGUUAAAUGGAGAAGAUACUUGUUUUUAUUAAACAUUUUGAGAUUUAGA; value = 0.416
Sequence = CGCUCCUCACCAGUGGGUUUUCUUUAUUUAUGAAUUGAUCUGAUUUCUCAACCUCAUUUGAACUAAAAAACAAGACCAUGAACAUUAAAAGAUUGCAUUUACCUUUUCAG; value = 0.52
Sequence = CUGGAGCUCUGCUUGCCUGUCCCCACCUCGCUGGAAACCAUCUCGCCAUUAGCGCAACUGAUUUCCCACACUCUGCUCUGGCCUGAACCCUAAUCUUCGCAGCCGCUUGG; value = 1.46
Sequence = CCCUGUAGCGUCUGAUUCCACUUACCAGACACCCACGCAUCUGCAGGAUGUCUGAUGCAGAGCGGUUCUCCAUCCCUCAGUUCCAGAAAAAAUGGAGUGAUAUUUAAAAA; value = 0.399
Sequence = UAUGCUCUUUGGGCUAAGAGGGGAUCAUCUCGCUUAAGAUGUACUCCUGAUGUAAACAUUUCCCCCACUUUCCAAAUAAUGGUAAAGAAAACAGUGGCAAGGGCUGUUCU; value = 0.774
Sequence = CUUGAGGACACUGGGCCCCCAUGGAAUCCCUCCAUGCCCUAGCAUGGCUAAAUGCUGAAGGUGGAGGUUCAGCAUGUCUGACAACCCGGAUGUACACCGUAGAAGUGCCA; value = 1.68
Sequence = AUUGGGGCCGCCAUCCUGCCUGGCACUGGCUGAUGGGCACCUCUGUUGGUUCCAUCAGCCAGAGCUCUGCCAAAGGCCCCGCAGUCCCUCUCCCAGGAGGACCCUAGAGG; value = 0.246

Series 5
Target: CCNA2, cyclin fold, Cln2 fusion (human)
Technique: yeast growth competition, sequencing
Sample: yeast
Setting: strong parent motif
Reference: not given
Reading: higher = stronger binding
Endpoint: normalised enrichment score
Starting sequence: PKN2 docking peptide (human); VSAVRKLDFSDTM
Change = VSAVRKLDFSATM [D11A]; value = 5.46
Change = VSAMRKLDFSDTM [V4M]; value = 5.21
Change = VSAVLKLDFSDTM [R5L]; value = 1.33
Change = VSAVRGLDFSDTM [K6G]; value = 2.66
Change = VTAVRKLDFSDTM [S2T]; value = 5.48
Change = VSAVDKLDFSDTM [R5D]; value = -0.369
Change = VSALRKLDFSDTM [V4L]; value = 4.73
Change = VSAVPKLDFSDTM [R5P]; value = -0.21
Change = VSAVRKLLFSDTM [D8L]; value = 4.38
Change = VSAIRKLDFSDTM [V4I]; value = 5.12
Change = VSAVRKFDFSDTM [L7F]; value = 0.0579
Change = VSFVRKLDFSDTM [A3F]; value = 4.78
Change = VEAVRKLDFSDTM [S2E]; value = 3.36
Change = VSAVWKLDFSDTM [R5W]; value = 0.423
Change = VSAVRMLDFSDTM [K6M]; value = 4.75
Change = VSAVRKLNFSDTM [D8N]; value = 5.48
Change = VSAVRKTDFSDTM [L7T]; value = 0.336
Change = VSAVRKLIFSDTM [D8I]; value = 5.07
Change = VSAVRKCDFSDTM [L7C]; value = 0.0888
Change = VSAVRVLDFSDTM [K6V]; value = 4.36
